Measured values gathered from unrelated publications.
Compare with care: the assays were run in different laboratories.
Target: Phosphatidylinositol 4-phosphate 3-kinase C2 domain-containing subunit beta (PIK3C2B, Homo sapiens, UniProt O00750)

| Structure (SMILES) | test | test system | conditions | how to read | measurement | value |
| --- | --- | --- | --- | --- | --- | --- |
| C=CC(=O)Nc1cc(-c2nn(C3CCN(CCNC(=O)[C@H](C)CCC45CC6CC(CC(C6)C4)C5)CC3)c3ncnc(N)c23)ccc1Oc1ccccc1 | inhibitor, KiNativ profiling | biochemical | 2 µM |  | inhibition | 13.4% |
| COc1cc(Nc2nc(C)cc(-c3cnn4nc(OC)ccc34)n2)cc(C(F)(F)F)c1 | inhibitor |  | 1 µM | baseline: control | remaining activity | 100% |
| CNC1C[S+]2CC[S+]3CC[S+](C1)[Ru-4]321([N]=C=S)[n]2c3ccc(OC)cc3c3c4c(c5cc(F)c[n+]1c5c32)C(=O)NC4=O (stereo not shown) | KinomeScan |  | 0.1 µM | baseline: untreated | remaining binding | 100% |
| COc1ccc(NC(=O)Nc2ccc3c(c2)C(=O)N(C(C)CO)CC(C)C(CN(C)Cc2ccc4c(c2)OCO4)O3)cc1 (stereo not shown) | binding, competition with immobilised ligand |  | 10 µM |  | remaining binding | 96% |
| CC(=O)c1cnc(N)nc1N1CC[C@H]1c1nn2ccc(Cl)c2c(=O)n1-c1ccccc1 | KiNativ | Jurkat cell lysate | 1 µM, 0.25 h |  | target engagement | 23.9% |
| CNS(=O)(=O)Nc1nccc(Cc2c(C)c3ccc(Oc4ncccc4F)cc3oc2=O)c1F | cell-free assay, competition with immobilised ligand |  | 10 µM |  | remaining binding | 97% |
| COc1c(Cl)cccc1Nc1c(-c2ccncc2C#C[C@@]2(C)CCCN2C(=O)/C=C/CN(C)C)[nH]c2c1C(=O)NCC2 | cell-free assay, competition with immobilised ligand |  | 3 µM |  | remaining binding | 50% |
| C=CC(=O)N1Cc2nc(-c3cc(-c4cc(Cl)cnc4Cl)c(F)cc3F)n(-c3ccncn3)c2C1 | cell-free assay, inhibitor |  | 1 µM |  | inhibition | -14.4% |
| CC(=O)N1c2ccc(-c3ccc(CNC(=O)c4cn5cc(-c6cnc(N)nc6)nc(N6CCOCC6)c5n4)cc3)cc2CC[C@@H]1C | binding, competition with immobilised ligand |  | 10 µM |  | remaining binding | 90% |
| CNC(=O)C1CCN(c2cc(C)c(F)cc2NC(=O)c2ccc(-c3cc(O)ccc3C)c(C)c2)CC1 | binding, competition with immobilised ligand |  | 1 µM |  | remaining binding | 77% |
| CN1CCN(Cc2ccc(NC(=O)c3cccc(C#Cc4cnc(N)c5ncccc45)c3)cc2C(F)(F)F)CC1 | cell-free assay, competition with immobilised ligand |  | 0.5 µM |  | remaining binding | 100% |
| Cc1cc(NC(=O)[C@H](O)c2cc(F)cc(F)c2)ccc1-c1cnc(N)c(C(=O)NC(C)C)c1 | binding, competition with immobilised ligand |  | 0.1 µM |  | remaining binding | 85% |
| CCN1CCN(Cc2ccc(C(=O)Nc3ccc(C)c(NCc4cnc5[nH]ccc5c4OC)c3)cc2C(F)(F)F)CC1 | binding, competition with immobilised ligand |  | 1 µM |  | remaining binding | 79% |

For quick reference, copied from above:
| Structure (SMILES) | test | test system | conditions | how to read | measurement | value |
| --- | --- | --- | --- | --- | --- | --- |
| CNC1C[S+]2CC[S+]3CC[S+](C1)[Ru-4]321([N]=C=S)[n]2c3ccc(OC)cc3c3c4c(c5cc(F)c[n+]1c5c32)C(=O)NC4=O (stereo not shown) | KinomeScan |  | 0.1 µM | baseline: untreated | remaining binding | 100% |
| COc1ccc(NC(=O)Nc2ccc3c(c2)C(=O)N(C(C)CO)CC(C)C(CN(C)Cc2ccc4c(c2)OCO4)O3)cc1 (stereo not shown) | binding, competition with immobilised ligand |  | 10 µM |  | remaining binding | 96% |
